Experimental data gathered from unrelated publications.
Protocols differ between the studies behind these lines. ± marks the error that the study gave. ≈ marks a conversion by molar mass, not a printed value.

SMILES = C/C=C/c1ccc(OC(C)=O)c(OC)c1; tested on = Spodoptera frugiperda; system = larvae; setting = 100 µg/mL; how to read = baseline: untreated control; quantity = antifeedant index; value = 42.7%
SMILES = CC[C@H](C)[C@H](NC(=O)CN)C(=O)NCC(=O)N[C@H](C(=O)N[C@H](C(=O)N[C@@H](CC(C)C)C(=O)N[C@@H](CCCNC(=N)N)C(=O)NCC(=O)N[C@@H](Cc1c[nH]c2ccccc12)C(=O)N[C@@H](CC(C)C)C(=O)N[C@@H](CCCCN)C(=O)NCC(=O)N[C@H](C(=O)N[C@@H](CCSC)C(=O)N[C@H](C(=O)N1CCC[C@H]1C(=O)N[C@H](C(=O)N[C@H](C(=O)NCC(=O)N[C@@H](CC(C)C)C(=O)N[C@@H](CCCCN)C(=O)N[C@@H](Cc1c[nH]cn1)C(=O)N[C@@H](CO)C(=O)N[C@@H](CC(C)C)C(=O)O)[C@@H](C)CC)C(C)C)[C@@H](C)O)C(C)C)C(C)C)[C@@H](C)O; tested on = Gram-negative bacteria; assay = MIC; setting = concentration not given; quantity = antibacterial activity; value = active
SMILES = CCC1c2cc(OC)c(O)cc2C(c2ccc(O)c(OC)c2)C1C (stereo not shown); tested on = Spodoptera frugiperda; assay = insecticidal activity; system = larvae; setting = topical; quantity = LD50; value = 2830 mg/kg
SMILES = CC(=O)O[C@H]1C[C@@H](C)O[C@H]2O[C@@H]3C[C@@H]4CC[C@@H]5[C@H](CC[C@]6(C)[C@@H](C7=CC(=O)OC7)CC[C@]56O)[C@@]4(C)C[C@H]3O[C@]21O; tested on = Schistosoma mansoni; assay = microscopic viability score; system = adult worms; setting = 1 µM, 72 h; quantity = viability effect; value = 84%
SMILES = N#CCNC(=O)c1cnccc1C(F)(F)F; tested on = Drosophila melanogaster; assay = negative geotaxis; setting = 20 µM, 10 s, 10% sucrose feed, 3 h; quantity = climbing flies; value = 38 ± 6%
SMILES = CCCCCCCCCCCCCC(=O)N[C@H](CCN)C(=O)N[C@@H]1C(=O)N[C@@H](CCN)C(=O)N[C@@H](CC(C)C)C(=O)N[C@@H](CCN)C(=O)N[C@H](Cc2ccccc2)C(=O)N[C@@H](CC(C)C)C(=O)N[C@@H](CCN)C(=O)N[C@H](Cc2ccc(O)cc2)C(=O)N[C@@H](C(C)C)C(=O)N[C@@H](CC(=O)O)C(=O)O[C@@H]1C; tested on = ESKAPE pathogens; setting = concentration not given; how to read = baseline: MIC with serum over without; quantity = MIC fold change with serum; value = 4 fold
SMILES = COC(=O)C1=CO[C@@H](OC(C)=O)[C@@H]2C(Cn3cc(COCc4ccc(OC)cc4)nn3)=CC[C@H]12; tested on = SK-N-SH; assay = neuroprotection, MTT; setting = 0.15 µM, 24 h, together with: 250 µM H2O2; quantity = viability; value = 65.9 ± 0.7%
SMILES = CN[C@@H]1[C@H](O)[C@H](NC)[C@H]2O[C@]3(O)[C@H](O[C@@H]2[C@H]1O)O[C@H](C)C[C@@]3(O)CNCc1ccc(F)cc1; tested on = Streptococcus pneumoniae; system = TIGR4, mice, intranasal challenge; setting = 5 mg/kg, from 18 h post infection; quantity = survival; value = 80%
SMILES = CC[C@H](C)[C@H](NC(=O)[C@H](CCCCN)NC(=O)[C@H](CCCCN)NC(=O)[C@H](CC(C)C)NC(=O)[C@H](CCCCN)NC(=O)[C@H](CCC(=O)O)NC(=O)[C@H](CCCCN)NC(=O)[C@@H](NC(=O)[C@H](CCCCN)NC(=O)[C@H](CC(N)=O)NC(=O)[C@H](CCCNC(=N)N)NC(=O)[C@H](Cc1ccccc1)NC(=O)[C@H](CCCCN)NC(=O)[C@H](CCCNC(=N)N)NC(=O)[C@H](CC(C)C)NC(=O)[C@H](CCCNC(=N)N)NC(=O)[C@H](CCCCN)NC(=O)[C@H](CCCNC(=N)N)NC(=O)[C@@H](N)CC(C)C)[C@@H](C)CC)C(=O)NCC(=O)N[C@@H](CCC(N)=O)C(=O)N[C@@H](CCCCN)C(=O)N[C@H](C(=O)N[C@@H](CCC(N)=O)C(=O)NCC(=O)N[C@@H](Cc1ccccc1)C(=O)N[C@H](C(=O)N1CCC[C@H]1C(=O)N[C@@H](CCCCN)C(=O)N[C@@H](CC(C)C)C(=O)O)C(C)C)[C@@H](C)CC; tested on = Staphylococcus; assay = inhibition zone; system = methicillin-resistant coagulase-negative P1369; quantity = lethal concentration; value = 1.44 µM
SMILES = O=C(Cn1ccc(=O)c2ccccc21)N/N=C/c1cc(Br)c(O)c(Br)c1; tested on = Bipolaris maydis; assay = microbial growth; setting = 50 µg/mL; quantity = inhibition; value = 17.8%
SMILES = CC(C)C[C@@H]1NC(=O)[C@H](CCCCN)NC(=O)[C@@H]2CCCN2C(=O)[C@@H](Cc2ccc(O)cc2)NC(=O)[C@H](CCCCN)NC(=O)[C@H](C(C)C)NC(=O)[C@H](CC(C)C)NC(=O)[C@H](CCCCN)NC(=O)[C@H](C(C)C)NC(=O)[C@@H]2CCCN2C(=O)[C@@H](Cc2ccc(O)cc2)NC(=O)[C@H](CC(C)C)NC(=O)[C@H](CCCCN)NC(=O)[C@H](C(C)C)NC(=O)[C@H](CCCCN)NC1=O; tested on = Gram-negative bacteria; setting = 24 h, 7 strains; quantity = MIC geometric mean; value = 32 µg/mL (≈ 17.8 µM)
SMILES = C=CCc1ccc(OCC(=C)C)c(OC)c1; tested on = Spodoptera frugiperda; system = larvae; setting = 50 µg/mL; how to read = baseline: untreated control; quantity = antifeedant index; value = 22.8%
SMILES = CC(=O)c1c(O)c(C)c(O)c2c1OC1=CC(=O)/C3=C(/C)N[C@H](C(=O)O)CC1=CC=CC=C[C@]2(C)C3=O; tested on = Candida tropicalis; assay = broth microdilution; system = ATCC 750 fluconazole and amphotericin B resistant; setting = 24 and 48 h; quantity = MIC99; value = 1.59 µM (≈ 0.781 µg/mL)
SMILES = CON(C(=O)c1cn(C)nc1C(F)F)C(C)Cc1c(Cl)cc(Cl)cc1Cl (stereo not shown); tested on = Alternaria alternata; assay = microbial growth; setting = 1.56 µg/mL; quantity = inhibition; value = 95%
SMILES = CC[C@@H](C)[C@@H](NC(=O)[C@@H](C)NC(=O)[C@@H](CCCCN)NC(=O)[C@@H](CC(C)C)NC(=O)[C@@H](CC(C)C)NC(=O)[C@H](NC(=O)[C@@H](CCCCN)NC(=O)[C@@H](CC(C)C)NC(=O)[C@@H](C)NC(=O)[C@@H](CCCCN)NC(=O)[C@@H](CCCCN)NC(=O)[C@@H](CCCCN)NC(=O)[C@@H](C)NC(=O)[C@@H](CCCCN)NC(=O)[C@@H](CO)NC(=O)[C@@H](Cc1ccccc1)NC(=O)[C@H](NC(=O)[C@@H](CCCCN)NC(=O)[C@@H](CC(C)C)NC(=O)[C@@H](Cc1ccccc1)NC(=O)[C@@H](CO)NC(=O)[C@@H](CCCCN)NC(=O)[C@@H](Cc1c[nH]c2ccccc12)NC(=O)[C@@H](CCCCN)NC(C)=O)[C@H](C)O)[C@H](C)O)C(=O)N[C@H](CO)C(=O)N[C@H](CCCCN)C(N)=O; tested on = Acinetobacter baumannii; system = 11 isolates; how to read = baseline: HC50 over geometric mean MIC; quantity = therapeutic index; value = 102
SMILES = COc1ccc(-n2c(SCC#N)nnc2[C@H](Cc2ccccc2)NC(=O)Cc2c(C)[nH]c3ccccc23)cc1; tested on = HIV-1 NL4-3; assay = single-round infection; setting = 5 µM, late stage; how to read = baseline: untreated; quantity = infection; value = 6.82 ± 4.73%
SMILES = C=C(C)[C@@H]1CC[C@]2(C(=O)NC(CO)Cc3ccccc3)CC[C@]3(C)[C@H](CC[C@@H]4[C@@]5(C)CCCNC(C)(C)[C@@H]5CC[C@]43C)[C@@H]12 (stereo partly shown); tested on = Human alphaherpesvirus 1; system = HFF, E-377; how to read = baseline: CC50 over EC50; quantity = selectivity index; value = < 3
SMILES = CC[C@H](C)[C@H](NC(=O)[C@H](CCCCN)NC(=O)[C@H](CCCCN)NC(=O)[C@H](CC(C)C)NC(=O)[C@H](CCCCN)NC(=O)[C@H](CCC(=O)O)NC(=O)[C@H](CCCCN)NC(=O)[C@@H](NC(=O)[C@H](CCCCN)NC(=O)[C@H](CC(N)=O)NC(=O)[C@H](CCCNC(=N)N)NC(=O)[C@H](Cc1ccccc1)NC(=O)[C@H](CCCCN)NC(=O)[C@H](CCCNC(=N)N)NC(=O)[C@H](CC(C)C)NC(=O)[C@H](CCCNC(=N)N)NC(=O)[C@H](CCCCN)NC(=O)[C@H](CCCNC(=N)N)NC(=O)[C@H](CC(C)C)NC(=O)[C@@H](N)CCCNC(=N)N)[C@@H](C)CC)C(=O)NCC(=O)N[C@@H](CCC(N)=O)C(=O)N[C@@H](CCCCN)C(=O)N[C@H](C(=O)N[C@@H](CCC(N)=O)C(=O)NCC(=O)N[C@@H](Cc1ccccc1)C(=O)N[C@H](C(=O)N1CCC[C@H]1C(=O)N[C@@H](CCCCN)C(=O)N[C@@H](CC(C)C)C(=O)N[C@@H](CCC(N)=O)C(=O)N1CCC[C@H]1C(=O)N[C@@H](CO)C(=O)N[C@@H](CCCCN)C(=O)N[C@@H](CCC(N)=O)C(=O)N[C@@H](CO)C(=O)O)C(C)C)[C@@H](C)CC; tested on = Staphylococcus; assay = inhibition zone; system = methicillin-resistant coagulase-negative P1369; quantity = lethal concentration; value = 2.09 µM
SMILES = CCOC(=O)c1c(-c2ccccc2)oc2ccc(NS(=O)(=O)c3ccc(F)cc3)cc12; tested on = porcine epidemic diarrhea virus; setting = 15 µM, 15 h post-infection; quantity = viral replication; value = inhibited

Some of these lines once more:
SMILES = C=CCc1ccc(OCC(=C)C)c(OC)c1; tested on = Spodoptera frugiperda; system = larvae; setting = 50 µg/mL; how to read = baseline: untreated control; quantity = antifeedant index; value = 22.8%
